Results gathered from unrelated publications.

For `Nc1nc(SCc2ccc(Cl)cc2)nn1S(=O)(=O)c1ccc2c(c1)CCO2`, the fraction unbound was 0.002 (equilibrium dialysis; mouse plasma; 5 µM, 6 h).
For `COc1ccccc1NC(=O)OC1C(C)C(OC)C=COC2(C)Oc3c(C)c(O)c4c(c3C2=O)C2=NC3(CCN(CC(C)C)CC3)NC2=C(NC(=O)C(C)=CC=CC(C)C(O)C(C)C(O)C1C)C4=O` (stereo not shown), the fraction unbound was 0.00432 (human plasma).
`O=C(CNC(=O)c1cccc(NC2=NCC(F)(F)CN2)c1)NC[C@H](NC(=O)c1c(Cl)cc(-c2ccccc2)cc1Cl)C(=O)O` has a fraction unbound of 0.035 (equilibrium dialysis; mouse plasma).
`O=C(Nc1nc(C(F)(F)F)co1)C1c2ccccc2Oc2ccccc21` gave a fraction unbound of 0.014 (equilibrium dialysis; rat plasma; 4 h, pH 7.4).
`NS(=O)(=O)c1ccc(NC(=O)[C@H](CC2CCCCC2)Nc2nn3c(=O)ccnc3s2)cc1` has a fraction unbound of 0.053 (rapid equilibrium dialysis; human plasma; 1 µM, 4 h).
With `COC1C=COC2(C)Oc3c(C)c(O)c4c(c3C2=O)C2=NC3(CCN(CC(C)C)CC3)NC2=C(NC(=O)C(C)=CC=CC(C)C(O)C(C)C(O)C(C)C(OC(=O)c2cccnc2)C1C)C4=O` (stereo not shown) the fraction unbound was 0.0386 (human plasma).
The fraction unbound of `Cc1nc2ccc(S(=O)(=O)n3nc(SCc4ccc(Cl)cc4)nc3N)cc2s1` is reported as < 0.001 (equilibrium dialysis; human plasma; 5 µM, 6 h).
`COC1C=COC2(C)Oc3c(C)c(O)c4c(c3C2=O)C2=NC3(CCN(CC(C)C)CC3)NC2=C(NC(=O)C(C)=CC=CC(C)C(O)C(C)C(O)C(C)C(OC(=O)Nc2cscn2)C1C)C4=O` (stereo not shown) gave a fraction unbound of 0.0168 (rapid equilibrium dialysis; mouse plasma).
The fraction unbound of `[11CH3]N(Cc1ccc(/C=C/C(=O)NO)cc1)CC12CC3CC(CC(C3)C1)C2` is reported as 0.055 (human plasma; 10 min).
For `COC1C=COC2(C)Oc3c(C)c(O)c4c(c3C2=O)C2=NC3(CCN(CC(C)C)CC3)NC2=C(NC(=O)C(C)=CC=CC(C)C(O)C(C)C(O)C(C)C(OC(=O)c2cncnc2)C1C)C4=O` (stereo not shown), the fraction unbound was 0.0941 (human plasma).
The fraction unbound of `CN1CC[C@@H](COc2cnc(C#N)cc2-c2ccn3nc(NC(=O)C4CC4)cc3c2)C1` is reported as 0.45 (rat plasma diluted 25%; 1 µM, 6 h, pH 7.4).
With `COC1C=COC2(C)Oc3c(C)c(O)c4c(c3C2=O)C2=NC3(CCN(CC(C)C)CC3)NC2=C(NC(=O)C(C)=CC=CC(C)C(O)C(C)C(O)C(C)C(OC(=O)Nc2cccnn2)C1C)C4=O` (stereo not shown) the fraction unbound was 0.0683 (rapid equilibrium dialysis; mouse plasma).
`OCC1OC(n2cnc3c(NCc4ccc(Br)s4)ncnc32)C(O)C1O` (stereo not shown) gave a fraction unbound of 0.05 (equilibrium dialysis; rat plasma; 5 µg/mL, 4 h, pH 7.4).
The fraction unbound of `O=C(CNC(=O)c1cccc(NC2=NCCCO2)c1)NC[C@H](NC(=O)c1c(Cl)cc(-c2ccccc2)cc1Cl)C(=O)O` is reported as 0.041 (equilibrium dialysis; mouse plasma).
`O=C(Nc1ccc(C(F)F)cc1)[C@H](CC1CCCCC1)Nc1nn2c(=O)ccnc2s1` gave a fraction unbound of 0.007 (rapid equilibrium dialysis; human plasma; 1 µM, 4 h).
`CC1Cc2ccccc2N1C(=O)CN1CCN(Cc2ccccc2)CC1` (stereo not shown) has a fraction unbound of 0.184 (equilibrium dialysis; mouse brain homogenate; 10 µg/g, 5 h, 37 °C).

A few entries again:
The fraction unbound of `CN1CC[C@@H](COc2cnc(C#N)cc2-c2ccn3nc(NC(=O)C4CC4)cc3c2)C1` is reported as 0.45 (rat plasma diluted 25%; 1 µM, 6 h, pH 7.4).
With `COC1C=COC2(C)Oc3c(C)c(O)c4c(c3C2=O)C2=NC3(CCN(CC(C)C)CC3)NC2=C(NC(=O)C(C)=CC=CC(C)C(O)C(C)C(O)C(C)C(OC(=O)Nc2cccnn2)C1C)C4=O` (stereo not shown) the fraction unbound was 0.0683 (rapid equilibrium dialysis; mouse plasma).
